Experimental data of several laboratories.
Every numbered part comes from another study and shows a few of its results, in no order.

Block 1
Target: Runt-related transcription factor 1, full length (RUNX1, Homo sapiens, UniProt Q01196-8, residues 1-480)
Method: protein-binding microarray
Molecule type: hairpin DNA
Matrix: in vitro
Concentration: not given
Notes: whole hairpin DNA, median over replicate spots
Reference: not given
Reading: higher = stronger binding
Strand	median fluorescence [a.u.]
GAGGCCTGTCGCGGTTGGGCTCCTGCCCAACCGCGACAGGCCTCACACTC (5mC at 26)	2860
GAGGCCTCGTGCGGTTGGCCTCCTGGCCAACCGCACGAGGCCTCACACTC (5mC at 8 36)	2990
GAGGCCCAACCGCAACAGCCTCCTGGCTGTTGCGGTTGGGCCTCACACTC (5mC at 16)	6830
GAGGCCTGTCCCGGTTGGCCTCCTGGCCAACCGGGACAGGCCTCACACTC (5mC at 11)	1850
GAGGCCTGTTGCGGTTGGCCTCCTGGCCAACCGCAACAGGCCTCACACTC (5mC at 32)	2000
GAGGCCTATTGTGGTTGGCCTCCTGGCCAACCACAATAGGCCTCACACTC	3070
GAGGCCCAACCGCAACGGCCTCCTGGCCGTTGCGGTTGGGCCTCACACTC	5260
GAGGCCTGTTGCGGTTGGCCTCCTGGCCAACCGCAACAGGCCTCACACTC (5mC at 12 32)	1840

Block 2
Target: Sal-like protein 4, full length isoform A (SALL4, Homo sapiens, UniProt Q9UJQ4, residues 1-1053)
UniProt Q9UJQ4, sequence (whole entry, looked up): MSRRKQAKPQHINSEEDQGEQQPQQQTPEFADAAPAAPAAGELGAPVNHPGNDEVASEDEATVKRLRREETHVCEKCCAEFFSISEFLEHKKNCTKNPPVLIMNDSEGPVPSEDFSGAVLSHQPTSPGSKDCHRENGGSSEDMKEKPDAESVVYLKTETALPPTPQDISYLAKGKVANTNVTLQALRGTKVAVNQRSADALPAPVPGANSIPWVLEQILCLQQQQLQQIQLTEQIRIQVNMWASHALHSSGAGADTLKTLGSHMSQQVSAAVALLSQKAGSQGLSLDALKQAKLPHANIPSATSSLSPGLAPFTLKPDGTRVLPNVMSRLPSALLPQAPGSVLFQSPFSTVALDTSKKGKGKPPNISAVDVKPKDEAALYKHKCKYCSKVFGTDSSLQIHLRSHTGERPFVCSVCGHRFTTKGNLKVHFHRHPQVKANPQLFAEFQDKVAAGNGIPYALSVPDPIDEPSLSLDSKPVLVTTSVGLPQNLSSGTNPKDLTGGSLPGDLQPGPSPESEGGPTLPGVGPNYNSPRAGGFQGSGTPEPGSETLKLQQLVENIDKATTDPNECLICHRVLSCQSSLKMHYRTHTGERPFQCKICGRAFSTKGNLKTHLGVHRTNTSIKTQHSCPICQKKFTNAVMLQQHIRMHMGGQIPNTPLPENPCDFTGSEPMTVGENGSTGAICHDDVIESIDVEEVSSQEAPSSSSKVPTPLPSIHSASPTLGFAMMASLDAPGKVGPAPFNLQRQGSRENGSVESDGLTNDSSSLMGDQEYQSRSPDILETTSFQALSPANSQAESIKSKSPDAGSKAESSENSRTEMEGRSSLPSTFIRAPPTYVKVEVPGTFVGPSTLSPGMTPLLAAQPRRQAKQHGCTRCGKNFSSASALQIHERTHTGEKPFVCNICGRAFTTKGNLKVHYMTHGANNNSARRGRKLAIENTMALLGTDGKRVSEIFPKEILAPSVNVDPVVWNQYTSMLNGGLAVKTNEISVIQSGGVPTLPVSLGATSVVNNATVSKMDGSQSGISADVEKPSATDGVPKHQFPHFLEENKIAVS
Method: universal PBM
Molecule type: double-stranded DNA, one strand shown
Matrix: in vitro
Concentration: 600 nM
Notes: 8-mer, flanks averaged, mean of replicates
Reading: higher = stronger binding
Strand	E-score
CATTAAAA	0.286
GAACCGAC	-0.282
ACTATGGA	0.165
CTCGACCC	-0.247
ACCCGCAT	-0.157
CGGCCACG	-0.293
GCCGTAGC	-0.24
GCCCTCTA	-0.228

Block 3
Target: Phosphate system positive regulatory protein PHO4, full length, GST-tagged (PHO4, Saccharomyces cerevisiae, UniProt P07270, residues 1-312)
Method: competition protein-binding microarray
Molecule type: double-stranded DNA, one strand shown
Matrix: in vitro
Concentration: 2 µM
Notes: whole 60-bp probe, lowest competitor level
Together with: Cbf1 competitor, 0.05 µM
Reading: higher = stronger binding
Constant ends, left off below: … GTCTTGATTCGCTTGACGCTGCTG
Construct (chain): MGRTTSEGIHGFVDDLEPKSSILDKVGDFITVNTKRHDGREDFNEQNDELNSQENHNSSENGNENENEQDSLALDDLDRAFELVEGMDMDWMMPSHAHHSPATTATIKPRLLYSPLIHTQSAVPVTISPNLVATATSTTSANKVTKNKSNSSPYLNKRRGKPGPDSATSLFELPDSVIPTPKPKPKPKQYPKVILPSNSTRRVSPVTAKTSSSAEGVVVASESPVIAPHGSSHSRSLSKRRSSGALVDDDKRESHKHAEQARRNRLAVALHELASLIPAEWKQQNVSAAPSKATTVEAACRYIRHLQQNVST
Strand	fluorescence intensity [a.u.]
CTGATTTGCCTGTACCACATGTCATAAAAACTGCGG	10300
TTCATCGAATGCTTGCGCATGCCAATGCACAGACAA	8170
TGTTAATTAAACCATCACGGCTCATTCATTTGAGTT	4500
TCCTCCCAGACGGGAAACGTGTCGGTCGCTTCTGTT	11800
AAGCAAGGTGATGTTCAGCTGACCGGCAGCATCGGC	2840
CCACCGCCGGATGCCTACGTGGTGAAGGGAGACAAA	6710
CGGGGTTAAGTTTTCCACGTGTTTTGCTTGCAGCAG	15500
CGTCCTAGTGATTGGAGGGTGGGTGCCATGAGGAAG	7460

Other studies, line by line
Sequence	target	test	test system	conditions	endpoint	value
MHYGYNRAN	HLA class I histocompatibility antigen, A alpha chain, allele A*80:01 (Homo sapiens, UniProt P04439)	peptide-MHC binding	peptide	concentration not given	binding	inactive

Excerpt of the above (block 1):
Strand	median fluorescence [a.u.]
GAGGCCTGTCCCGGTTGGCCTCCTGGCCAACCGGGACAGGCCTCACACTC (5mC at 11)	1850
GAGGCCTGTTGCGGTTGGCCTCCTGGCCAACCGCAACAGGCCTCACACTC (5mC at 32)	2000
